Results of several laboratories.
Protocols differ between the studies behind these lines. Numbers after ± are the reported error.
Target: Broad substrate specificity ATP-binding cassette transporter ABCG2 (ABCG2, Homo sapiens, UniProt Q9UNQ0)
Residues used in one study (Q9UNQ0 1-655): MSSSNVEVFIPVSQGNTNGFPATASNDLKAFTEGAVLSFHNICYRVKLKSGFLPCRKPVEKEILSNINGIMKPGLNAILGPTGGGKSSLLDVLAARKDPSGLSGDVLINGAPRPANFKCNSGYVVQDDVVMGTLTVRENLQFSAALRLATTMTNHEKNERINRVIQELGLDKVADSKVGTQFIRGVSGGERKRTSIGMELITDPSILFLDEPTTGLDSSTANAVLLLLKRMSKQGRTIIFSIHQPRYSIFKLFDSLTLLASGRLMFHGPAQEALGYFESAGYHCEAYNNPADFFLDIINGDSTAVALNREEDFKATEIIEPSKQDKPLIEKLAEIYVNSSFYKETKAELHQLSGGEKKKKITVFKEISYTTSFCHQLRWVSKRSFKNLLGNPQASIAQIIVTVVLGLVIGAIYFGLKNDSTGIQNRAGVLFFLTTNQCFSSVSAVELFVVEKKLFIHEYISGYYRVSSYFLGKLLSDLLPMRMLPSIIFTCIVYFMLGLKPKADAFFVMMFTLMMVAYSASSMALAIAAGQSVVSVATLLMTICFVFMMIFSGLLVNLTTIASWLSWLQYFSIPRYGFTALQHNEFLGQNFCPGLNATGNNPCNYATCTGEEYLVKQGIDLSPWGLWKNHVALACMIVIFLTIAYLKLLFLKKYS

For `Cc1ccc(C(=O)Nc2cccc(C(F)(F)F)c2)cc1N`, the IC20 was 5.15 µM (MCF7-FLV1000, overexpressing; with: mitoxantrone 5 µM).
The Km of `O=C(O)C1OC(Oc2cccc(-c3cc(=O)c4ccccc4o3)c2)C(O)C(O)C1O` (stereo not shown) is reported as 5.6 µM (efflux of glucuronide, substrate; HeLa-UGT1A9).
The IC20 of `COC(=O)c1ccc(C)c(Nc2ncccn2)c1` is reported as > 20 µM (MCF7-FLV1000, overexpressing; with: mitoxantrone 5 µM).
With `O=C(/C=C/c1ccc(Cl)c(Cl)c1)c1ccc2ccccc2c1` the inhibition was 2 ± 1.4% (mitoxantrone efflux, flow cytometry; HEK293 transfected with ABCG2; 5 µM, 30 min, with: mitoxantrone; relative to: 5 µM GF120918 as 100%).
The inhibition of `COc1cc(CCOC(C)=O)cc(-c2cc(CCOC(C)=O)cc(O)c2O)c1O` is reported as 21.8 ± 12% (mitoxantrone transport, inhibitor; 10 µM, 30 min, with: mitoxantrone 5 µM; relative to: Ko143 0.5 µM).
With `COc1cc(OC)c(OC)cc1/C=C/C(=O)c1ccc2ccccc2c1` the inhibition was 96.9 ± 7.4% (mitoxantrone efflux, flow cytometry; HEK293 transfected with ABCG2; 5 µM, 30 min, with: mitoxantrone; relative to: 5 µM GF120918 as 100%).
`O=C(O)C1OC(Oc2ccc3c(=O)cc(-c4ccccc4)oc3c2)C(O)C(O)C1O` (stereo not shown) gave a Vmax of 303 pmol/min/mg protein (glucuronide efflux, substrate; HeLa-UGT1A9).
`COc1cc(/C=C/C(=O)c2ccc3c(c2)OCO3)cc(OC)c1OC` has an inhibition of 73 ± 10.1% (mitoxantrone efflux, flow cytometry; HEK293 transfected with ABCG2; 5 µM, 30 min, with: mitoxantrone; relative to: 5 µM GF120918 as 100%).
With `Cc1ccc(C(=O)Nc2cc(Br)cc(C(F)(F)F)c2)cc1Nc1ncccn1` the IC20 was 1.92 µM (MCF7-FLV1000, overexpressing; with: mitoxantrone 5 µM).
`O=C(O)C1OC(Oc2ccccc2-c2cc(=O)c3ccccc3o2)C(O)C(O)C1O` (stereo not shown) gave a Km of 4.6 µM (substrate, vesicular transport; BCRP membrane vesicles).

A few entries again:
For `Cc1ccc(C(=O)Nc2cccc(C(F)(F)F)c2)cc1N`, the IC20 was 5.15 µM (MCF7-FLV1000, overexpressing; with: mitoxantrone 5 µM).
